{"data": "Measurements of several laboratories", "note": "Each line is one published result; not all experiments were run side by side. Values joined by “and” are separate records of one study, mostly repeats; a detail may differ. ± marks the error that the study gave.", "UniProt P08684, sequence (whole entry, looked up)": "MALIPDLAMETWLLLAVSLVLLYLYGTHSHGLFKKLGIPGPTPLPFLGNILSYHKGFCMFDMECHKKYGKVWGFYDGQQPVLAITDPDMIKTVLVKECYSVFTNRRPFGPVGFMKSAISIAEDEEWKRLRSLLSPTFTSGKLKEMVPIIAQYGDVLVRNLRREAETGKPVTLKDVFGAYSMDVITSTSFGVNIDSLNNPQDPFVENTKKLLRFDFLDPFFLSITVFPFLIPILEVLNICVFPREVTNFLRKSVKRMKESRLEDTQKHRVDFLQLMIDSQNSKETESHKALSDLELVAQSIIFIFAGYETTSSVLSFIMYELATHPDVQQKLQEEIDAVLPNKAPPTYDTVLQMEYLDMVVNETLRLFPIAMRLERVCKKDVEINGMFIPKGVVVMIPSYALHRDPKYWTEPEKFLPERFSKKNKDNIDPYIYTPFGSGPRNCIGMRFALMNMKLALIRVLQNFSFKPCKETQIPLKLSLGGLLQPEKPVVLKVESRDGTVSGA"}
{"Compound": "N=C(N)NCCC[C@@H]1NC(=O)[C@H](CCCCNC(=O)CNC(=O)CNC(=O)CNC(=O)CC[C@H](NC(=O)CNC(=O)CNC(=O)CNC(=O)CN2CCN(CC(=O)O)CCN(CC(=O)O)CCN(CC(=O)O)CC2)C(=O)NCC(=O)NCC(=O)NCC(=O)NCCCC[C@@H]2NC(=O)[C@@H](Cc3ccccc3)NC(=O)[C@H](CC(=O)O)NC(=O)CNC(=O)[C@H](CCCNC(=N)N)NC2=O)NC(=O)[C@@H](Cc2ccccc2)NC(=O)[C@H](CC(=O)O)NC(=O)CNC1=O [indium-111 labelled]", "system": "female athymic nu/nu mice, liver", "conditions": "intravenous, 4 h", "quantity": "tissue uptake", "result": "2.23 ± 0.05 %ID/g"}
{"Compound": "COc1ccc2cc(NC(=O)c3cc(-c4cccnc4)nc4ccccc34)ccc2c1", "tested on": "Cytochrome P450 3A4 (CYP3A4, Homo sapiens, UniProt P08684)", "assay": "substrate, refers to: metabolite M1", "system": "baculosomes", "quantity": "kcat/Km", "result": "12800 M⁻¹ s⁻¹"}
{"Compound": "COc1cc(CNC(=O)C[C@H](C)CCC=C(C)C)ccc1OCc1cn(-c2ccc(Br)cc2)nn1", "tested on": "SR leukaemia cells", "assay": "SRB", "conditions": "10 µM, 48 h", "quantity": "growth percent", "result": "63.8%"}
{"Compound": "CSCC[C@H](NC(=O)[C@H](CC(C)C)NC(=O)[C@H](Cc1c[nH]cn1)NC(=O)CNC(=O)[C@@H](NC(=O)[C@H](C)NC(=O)[C@H](Cc1c[nH]c2ccccc12)NC(=O)[C@H](CCC(N)=O)NC(=O)CCOCCOCCOCCOCCNC(=O)CN1CCN(CC(=O)O)CCN(CC(=O)O)CCN(CC(=O)O)CC1)C(C)C)C(N)=O [indium-111 labelled]", "assay": "radio-HPLC", "system": "Swiss nu/nu mice, blood", "conditions": "intravenous, 1 nmol, 5 min", "quantity": "intact peptide", "result": "22.4% and 24.4%"}
{"Compound": "COC(=O)[C@H](CSSC(C)(C)[C@H](NC(=O)[C@H](CCC(=O)NC[C@H](O)[C@@H](O)[C@H](O)[C@H](O)CO)NC(=O)[C@H](CCC(=O)O)NC(=O)[C@H](CCC(=O)NC[C@H](O)[C@@H](O)[C@H](O)[C@H](O)CO)NC(=O)[C@H](CCC(=O)O)NC(=O)[C@H](CCC(=O)NC[C@H](O)[C@@H](O)[C@H](O)[C@H](O)CO)NC(=O)CC[C@H](NC(=O)c1ccc(NCc2cnc3nc(N)[nH]c(=O)c3n2)cc1)C(=O)O)C(=O)O)NC(=O)CC[C@H](NC(=O)c1ccc(NCc2cnc3nc(N)[nH]c(=N)c3n2)cc1)C(=O)O", "system": "Lewis rat, female, plasma", "conditions": "subcutaneous, 500 nmol/kg", "quantity": "terminal half-life", "result": "~0.463 h"}
{"Compound": "N=C(N)NCCC[C@@H]1NC(=O)[C@H](CCCCNC(=S)Nc2ccc(CC3CN(CC(=O)O)CCN(CC(=O)O)CCN(CC(=O)O)CCN3CC(=O)O)cc2)NC(=O)[C@@H](Cc2ccc(O)cc2)NC(=O)[C@H](CC(=O)O)NC(=O)CNC1=O (stereo partly drawn) [actinium-225 labelled]", "system": "U-87 MG tumour-bearing mice", "conditions": "24 h", "quantity": "tumour to muscle ratio", "result": 3.6}
{"Compound": "CCCC[C@H](NC(=O)COCCOCCNC(=O)CN1CCN(CC(=O)O)CCN(CC(=O)O)CC1)C(=O)N[C@H]1CC(=O)NCCCC[C@@H](C(N)=O)NC(=O)[C@H](Cc2c[nH]c3ccccc23)NC(=O)[C@H](CCCNC(=N)N)NC(=O)[C@@H](Cc2ccccc2)NC(=O)[C@H](Cc2c[nH]cn2)NC1=O [copper-64 labelled]", "system": "C57 mice, brain", "conditions": "intravenous, 0.37 MBq, 4 h", "quantity": "tissue uptake", "result": "0.02 %ID/g"}
{"Compound": "[64Cu+2].c1cnc(CNCc2ccc(CN3CCCN4CCNCCCN(CC4)CC3)cc2)nc1", "tested on": "CXCR4", "system": "NOD/SCID mouse, U87 and U87-stb-CXCR4 xenografts, lungs", "conditions": "iv, 240 min, ex vivo", "quantity": "tissue uptake", "result": "6.94 ± 1.69 %ID/g"}
{"Compound": "N=C(N)NCCC[C@@H]1NC(=O)[C@H](CCCCNC(=O)CNC(=O)CNC(=O)CNC(=O)CC[C@H](NC(=O)CNC(=O)CNC(=O)CNC(=O)CC[C@H](NC(=O)CN2CCN(CC(=O)O)CCN(CC(=O)O)CCN(CC(=O)O)CC2)C(=O)NCC(=O)NCC(=O)NCC(=O)N[C@@H](CCC(=O)NCC(=O)NCC(=O)NCC(=O)NCCCC[C@@H]2NC(=O)[C@@H](Cc3ccccc3)NC(=O)[C@H](CC(=O)O)NC(=O)CNC(=O)[C@H](CCCNC(=N)N)NC2=O)C(=O)NCC(=O)NCC(=O)NCC(=O)NCCCC[C@@H]2NC(=O)[C@@H](Cc3ccccc3)NC(=O)[C@H](CC(=O)O)NC(=O)CNC(=O)[C@H](CCCNC(=N)N)NC2=O)C(=O)NCC(=O)NCC(=O)NCC(=O)NCCCC[C@@H]2NC(=O)[C@@H](Cc3ccccc3)NC(=O)[C@H](CC(=O)O)NC(=O)CNC(=O)[C@H](CCCNC(=N)N)NC2=O)NC(=O)[C@@H](Cc2ccccc2)NC(=O)[C@H](CC(=O)O)NC(=O)CNC1=O [indium-111 labelled]", "system": "female athymic nu/nu mice, liver", "conditions": "intravenous, 72 h", "quantity": "tissue uptake", "result": "2.01 ± 0.45 %ID/g"}
{"Compound": "COc1cc(CNC(=O)C[C@H](C)CCC=C(C)C)ccc1OCc1cn(-c2cccc(C(F)(F)F)c2)nn1", "tested on": "SR leukaemia cells", "assay": "SRB", "conditions": "10 µM, 48 h", "quantity": "growth percent", "result": "41.5%"}
{"Compound": "N=C(N)NCCC[C@@H]1NC(=O)[C@H](CCCCNC(=O)CC[C@H](NC(=O)CC[C@H](NC(=O)CN2CCN(CC(=O)O)CCN(CC(=O)O)CCN(CC(=O)O)CC2)C(=O)N[C@@H](CCC(=O)NCCCC[C@@H]2NC(=O)[C@@H](Cc3ccccc3)NC(=O)[C@H](CC(=O)O)NC(=O)CNC(=O)[C@H](CCCNC(=N)N)NC2=O)C(=O)NCCCC[C@@H]2NC(=O)[C@@H](Cc3ccccc3)NC(=O)[C@H](CC(=O)O)NC(=O)CNC(=O)[C@H](CCCNC(=N)N)NC2=O)C(=O)NCCCC[C@@H]2NC(=O)[C@@H](Cc3ccccc3)NC(=O)[C@H](CC(=O)O)NC(=O)CNC(=O)[C@H](CCCNC(=N)N)NC2=O)NC(=O)[C@@H](Cc2ccccc2)NC(=O)[C@H](CC(=O)O)NC(=O)CNC1=O [indium-111 labelled]", "system": "female athymic nu/nu mice, eyes", "conditions": "intravenous, 24 h", "quantity": "tissue uptake", "result": "0.64 ± 0.1 %ID/g"}
{"Compound": "O=C(O)CC[C@H](NC(=O)N[C@@H](CCCCNC(=O)CCCCC[C@H](NC(=O)CCS[C@@H]1O[C@H](CO)[C@H](O)[C@H](O)[C@H]1O)C(=O)NCCCC[C@@H](NC(=O)[C@@H](Cc1ccccc1)NC(=O)[C@@H](Cc1ccc(O)c(I)c1)NC(=O)CCC(C(=O)O)N1CCN(CC(=O)O)CCN(CC(=O)O)CCN(CC(=O)O)CC1)C(=O)O)C(=O)O)C(=O)O (stereo partly drawn) [gallium-68 labelled]", "system": "CB-17 SCID mice", "conditions": "3 h post injection, biodistribution", "quantity": "tumour uptake", "result": "3.85 ± 0.54 %ID/g"}
{"Compound": "CCCC[C@H](NC(=O)CCCCCCCNC(=O)CN1CCN(CC(=O)O)CCN(CC(=O)O)CC1)C(=O)N[C@H]1CC(=O)NCCCC[C@@H](C(N)=O)NC(=O)[C@H](Cc2c[nH]c3ccccc23)NC(=O)[C@H](CCCNC(=N)N)NC(=O)[C@@H](Cc2ccccc2)NC(=O)[C@H](Cc2c[nH]cn2)NC1=O [copper-64 labelled]", "system": "C57 mice, tumor", "conditions": "intravenous, 0.37 MBq, 0.5 h", "quantity": "tissue uptake", "result": "5.69 ± 0.23 %ID/g"}
{"Compound": "CC(C)C[C@H](NC(=O)C[C@H](O)[C@H](CC(C)C)NC(=O)[C@H](Cc1c[nH]cn1)NC(=O)CNC(=O)[C@@H](NC(=O)[C@H](C)NC(=O)[C@H](Cc1c[nH]c2ccccc12)NC(=O)[C@H](CCC(N)=O)NC(=O)[C@@H](Cc1ccccc1)NC(=O)CCOCCOCCOCCNC(=O)CN1CCN(CC(=O)O)CCN(CC(=O)O)CC1)C(C)C)C(N)=O [gallium-68 labelled]", "assay": "microPET imaging", "system": "nude mouse PC-3 xenograft, PC-3 tumour", "conditions": "intravenous, 3.7 MBq, 60 min", "quantity": "mean tumour uptake", "result": "3.01 ± 0.45 %ID/g"}
{"Compound": "CSCC[C@H](NC(=O)[C@H](CC(C)C)NC(=O)[C@H](Cc1c[nH]cn1)NC(=O)CNC(=O)[C@@H](NC(=O)[C@H](C)NC(=O)[C@H](Cc1c[nH]c2ccccc12)NC(=O)[C@H](CCC(N)=O)NC(=O)CNC(=O)CNC(=O)CNC(=O)CCCCCN1C(=CC=C2CCCC(C=CC3=[N+](CCCCS(=O)(=O)[O-])c4ccc(S(=O)(=O)O)cc4C3(C)C)=C2Oc2ccc(S(=O)(=O)O)cc2)C(C)(C)c2cc(S(=O)(=O)O)ccc21)C(C)C)C(N)=O", "system": "female BALB/c mice", "conditions": "intravenous", "quantity": "half-life", "result": "1.7 h"}
